Results from different studies.
Each line is one published result; not all experiments were run side by side. Numbers after ± are the reported error. In brackets after ≈: the same amount, converted by molar mass.

NCCCC[C@@H]1NC(=O)[C@@H](Cc2c[nH]c3ccccc23)NC(=O)[C@H](c2ccccc2)NC(=O)[C@@H]2C[C@@H](OC(=O)NCCN)CN2C(=O)[C@H](Cc2ccccc2)NC(=O)[C@H](Cc2ccc(OCc3ccccc3)cc2)NC1=O — beta half-life (radioimmunoassay; healthy human male volunteers, plasma; subcutaneous, 200 µg): 7.8 ± 2.1 h
CC(C)=CCC[C@](C)(O[C@@H]1O[C@H](CO)[C@@H](O)[C@H](O)[C@H]1O)[C@H]1CC[C@]2(C)[C@@H]1[C@H](O)C[C@@H]1[C@@]3(C)CC[C@H](O[C@@H]4O[C@H](CO)[C@@H](O)[C@H](O)[C@H]4O[C@@H]4O[C@H](CO)[C@@H](O)[C@H](O)[C@H]4O)C(C)(C)[C@@H]3CC[C@]12C — post-preparative stability accuracy (rat, extracted plasma QC samples; 2.0 µg/mL, 24 h, 15 °C, autosampler): 96.3 ± 8.5%
CN1CC[C@@H](NC(=O)Nc2ccc(C#N)cc2)C[C@@H]1c1nc2ccccc2[nH]1 — AUC(0-inf), unbound (moderate hepatic impairment, plasma; oral, 100 mg single dose, fasted, arithmetic mean): 1040 ± 286 ng·h/mL
CCCC[C@H](NC(C)=O)C(=O)N[C@H]1CCC(=O)NC[C@@H](C(=O)N[C@@H](Cc2c[nH]c3ccccc23)C(N)=O)NC(=O)[C@H](CCCNC(=N)N)NC(=O)[C@@H](Cc2ccccc2)NC(=O)[C@H](Cc2c[nH]cn2)NC1=O — Tmax (male rat, plasma; subcutaneous, 25 mg/kg/day, multiple doses, once daily): 1 h
N=C(N)NC(=O)c1cnn(-c2cccc3ncccc23)c1C1CC1 — CLint (cynomolgus monkey male, hepatic S9; 1 µM, pH 7.4, with: without NADPH): 55.3 ± 1.63 mL/min/kg
COc1cccc(N2CCN(C3=Nc4c(F)cccc4[C@H](CC(=O)O)N3c3cc(C(F)(F)F)ccc3OC)CC2)c1 — terminal half-life (UHPLC-MS/MS; healthy women, plasma; intravenous infusion, 720 mg single dose, 60 min infusion, HPβCD formulation): 11.6 ± 4.11 h
CCCC[C@@H]1NC(=O)[C@@H](NC(=O)[C@H](CCC(=O)O)NC(=O)CNC(=O)CN2CCN(CC(=O)O)CCN(CC(=O)O)CCN(CC(=O)O)CC2)CCCCNC(=O)C[C@@H](C(N)=O)NC(=O)[C@H](C(C)C)NC(=O)[C@@H]2CCCN2C(=O)[C@H](CCCNC(=N)N)NC(=O)CNC(=O)[C@H](Cc2c[nH]c3ccccc23)NC(=O)[C@H](CCCNC(=N)N)NC(=O)[C@@H](Cc2ccccc2)NC(=O)[C@H](Cc2c[nH]cn2)NC(=O)[C@H](CCC(=O)O)NC1=O [indium-111 labelled] — lung to tissue ratio (item: kidney; C57 mice; intravenous, 0.037 MBq, 24 h): 0.002
COc1ccc(-c2cc(=O)c3c(O)c(OC)c(OC)c(OC)c3o2)cc1OC — tissue to peel content ratio (C57BL/6 mouse, male, feces; oral, 1% w/w in diet, 6 weeks, orange peel extract diet; reference: content in orange peel): 212%
COC(=O)N[C@H](C(=O)N[C@@H](Cc1ccccc1)[C@@H](O)CN(Cc1ccc(-c2ccccn2)cc1)NC(=O)[C@@H](NC(=O)OC)C(C)(C)C)C(C)(C)C — particle permeability (modified PAMPA Franz cell; phosphate buffer with HPMCAS; stock 5 mg/mL, 3 h, 37 °C, 193 nm particles, 300 rpm, with: 3% BSA receiver): 47.7 ± 2.8 ×10⁻⁶ cm/s
CN1CCN(C(=O)[C@@H](N)CSSC[C@H](N)C(=O)N2CCN(C)CC2)CC1.Cl.Cl.Cl.Cl — concentration in urine (wild-type mice, male, urine; oral gavage, 29.3 µmol/kg daily for 1 week, 4 h after last dose): 2100 ± 570 nM
O=C1C=Cc2c(c(-c3ccco3)cn2S(=O)(=O)c2ccccc2)C1=O — kinetic solubility (LC-MS; PBS, 5% DMSO; 2 h): 21.2 µM (≈ 7.51 µg/mL)
CN[C@H](CC(C)C)C(=O)N[C@H]1C(=O)N[C@@H](CC(N)=O)C(=O)N[C@H]2C(=O)N[C@H]3C(=O)N[C@H](C(=O)N[C@H](C(=O)O)c4cc(O)cc(O)c4-c4cc3ccc4O)[C@H](O)c3ccc(c(Cl)c3)Oc3cc2cc(c3O[C@@H]2O[C@H](CO)[C@@H](O)[C@H](O)[C@H]2O[C@H]2C[C@](C)(N)[C@H](O)[C@H](C)O2)Oc2ccc(cc2Cl)[C@H]1O — time above MIC (microdialysis; pig, Danish Landrace, cortical bone; intravenous, 1000 mg over 100 min, 450 min dosing interval, with: 4.0 µg/mL MIC; reference: dosing interval): 7%
Cc1cnc(NC(=O)C2=C(O)c3ccccc3S(=O)(=O)N2C)s1 — hepatocyte vacuolization score (Sprague-Dawley rat, male, liver; oral, 12 mg/kg, 24 h, single high dose; direction not given): 0
CCCOc1ccc([C@H]2CNC(=O)N2c2ccc3[nH]cnc3c2)cc1 — terminal half-life (non-elderly adults, fasted, plasma; oral, 50 mg twice daily, day 11, oral solution, geometric mean): 2.73 h
O=c1[nH]c(=O)c2c[nH]nc2[nH]1 — Ae(0-24) ratio (human, male, urine; oral, 10 mg, with: allopurinol 300 mg; reference: combination over alone): 119%
Nc1ccn([C@@H]2O[C@H](CO)[C@@H](O)C2(F)F)c(=O)n1 — measured concentration (THU-treated rat plasma; 3200.00 ng/mL, -80 to 20 °C, three freeze-thaw cycles, high QC): 2970 ± 150 ng/mL
CC1=C2C[C@H]3[C@@H](CC[C@@H]4C[C@H](NS(C)(=O)=O)CC[C@@]43C)[C@@H]2CC[C@@]2(C1)O[C@@H]1C[C@H](C)CN[C@H]1[C@H]2C — Cmax (patients, plasma; oral, 180 mg single, day -7, cycle 1): 106 ng/mL
CCCCCCCC(=O)OC[C@H](NC(=O)[C@H](CO)NC(=O)CN)C(=O)N[C@H](C(=O)N[C@@H](CC(C)C)C(=O)N[C@@H](CO)C(=O)N1CCC[C@H]1C(=O)N[C@@H](CCC(=O)O)C(=O)N[C@@H](Cc1c[nH]cn1)C(=O)N[C@@H](CCC(N)=O)C(=O)N[C@@H](CCCNC(=N)N)C(=O)N[C@H](C(=O)N[C@@H](CCC(N)=O)C(=O)N[C@@H](CCC(N)=O)C(=O)N[C@@H](CCCNC(=N)N)C(=O)N[C@@H](CCCCN)C(=O)N[C@@H](CCC(=O)O)C(=O)N[C@@H](CO)C(=O)N[C@@H](CCCCN)C(=O)N[C@@H](CCCCN)C(=O)N1CCC[C@H]1C(=O)N1CCC[C@H]1C(=O)N[C@@H](C)C(=O)N[C@@H](CCCCN)C(=O)N[C@@H](CC(C)C)C(=O)N[C@@H](CCC(N)=O)C(=O)N1CCC[C@H]1C(=O)N[C@@H](CCCNC(=N)N)C(=O)O)C(C)C)[C@@H](c1ccccc1)c1c[nH]c2ccccc12 — HPLC retention (RP-HPLC Kinetex Biphenyl; acetonitrile/water TFA gradient): 32.8 %B
CCN(CC)CCNC(=O)c1c(C)[nH]c(/C=C2\C(=O)Nc3ccc(F)cc32)c1C — minimum trough plasma concentration (human, plasma; oral, 20 mg/m2, day 14): 26.9 ng/mL
Cc1nc2cccc(OCC(C)(C)C(=O)NC(C)C)c2c(N)c1C(=O)O — AUC(0-t) (male Sprague-Dawley rat, plasma; oral, 10 mg/kg, single dose): 17.9 ng·h/mL
C[C@]12CC[C@@H]3c4ccc(O)cc4CC[C@H]3[C@@H]1C[C@@H](O)[C@@H]2O — minimum serum concentration (GC-MS; breast cancer women on NSAI, serum; vaginal, 0.03 mg, 6 h, day 0): 0 ng/mL
O=C(CCCCCCC(=O)Nc1ccccc1)NO — AUC(0-7 h) (patients, serum; oral, 1000 mg, cycle -1 day 2, alone): 37.5 µM·h
CS(=O)(=O)Nc1ccc(C(=O)O[C@@H](Cc2c(Cl)c[n+]([O-])cc2Cl)c2ccc(OC(F)F)c(OCC3CC3)c2)cc1OCC1CC1 — Cmax (human, plasma; inhaled, 2400 µg twice daily, day 1, multi-dose dry powder inhaler): 1.23 ng/mL
O=C(O)/C=C/c1ccccc1 — measured concentration (rat plasma QC sample; 1 ng/mL nominal, 24 h, low QC level autosampler stability): 1.06 ± 0.09 ng/mL
Cc1cc(Nc2cc3ncccc3c(N[C@@H]3C[C@H]4CC[C@@H](C3)N4CCC#N)n2)n[nH]1 — Cmax (beagle dog, female, plasma; oral, 30 mg/kg/day, last day of 4 weeks): 64.5 ng/mL
COc1ccc(-c2cc(=O)c3c(OC)c(OC)c(OC)c(OC)c3o2)cc1 — tissue to peel content ratio (C57BL/6 mouse, male, liver; oral, 1% w/w in diet, 6 weeks, orange peel extract diet; reference: content in orange peel): 0.03%
C#C[C@]1(CO)O[C@@H](n2cnc3c(N)nc(F)nc32)C[C@@H]1O — AUC(0-inf) (human, plasma; oral, 15 mg, single dose, fasted): 1.58 µM·h

A few entries again:
O=C(CCCCCCC(=O)Nc1ccccc1)NO — AUC(0-7 h) (patients, serum; oral, 1000 mg, cycle -1 day 2, alone): 37.5 µM·h
CCCC[C@H](NC(C)=O)C(=O)N[C@H]1CCC(=O)NC[C@@H](C(=O)N[C@@H](Cc2c[nH]c3ccccc23)C(N)=O)NC(=O)[C@H](CCCNC(=N)N)NC(=O)[C@@H](Cc2ccccc2)NC(=O)[C@H](Cc2c[nH]cn2)NC1=O — Tmax (male rat, plasma; subcutaneous, 25 mg/kg/day, multiple doses, once daily): 1 h
